Measured values collected from several papers.
Each line is one published result; not all experiments were run side by side. Numbers after ± are the reported error. Converted amounts (≈) assume the structure as drawn.

By UniProt entry, the sequences of proteins in these tests, tags left out. Residues count along the entry.
UniProt P42262, 25-883 limits assumed: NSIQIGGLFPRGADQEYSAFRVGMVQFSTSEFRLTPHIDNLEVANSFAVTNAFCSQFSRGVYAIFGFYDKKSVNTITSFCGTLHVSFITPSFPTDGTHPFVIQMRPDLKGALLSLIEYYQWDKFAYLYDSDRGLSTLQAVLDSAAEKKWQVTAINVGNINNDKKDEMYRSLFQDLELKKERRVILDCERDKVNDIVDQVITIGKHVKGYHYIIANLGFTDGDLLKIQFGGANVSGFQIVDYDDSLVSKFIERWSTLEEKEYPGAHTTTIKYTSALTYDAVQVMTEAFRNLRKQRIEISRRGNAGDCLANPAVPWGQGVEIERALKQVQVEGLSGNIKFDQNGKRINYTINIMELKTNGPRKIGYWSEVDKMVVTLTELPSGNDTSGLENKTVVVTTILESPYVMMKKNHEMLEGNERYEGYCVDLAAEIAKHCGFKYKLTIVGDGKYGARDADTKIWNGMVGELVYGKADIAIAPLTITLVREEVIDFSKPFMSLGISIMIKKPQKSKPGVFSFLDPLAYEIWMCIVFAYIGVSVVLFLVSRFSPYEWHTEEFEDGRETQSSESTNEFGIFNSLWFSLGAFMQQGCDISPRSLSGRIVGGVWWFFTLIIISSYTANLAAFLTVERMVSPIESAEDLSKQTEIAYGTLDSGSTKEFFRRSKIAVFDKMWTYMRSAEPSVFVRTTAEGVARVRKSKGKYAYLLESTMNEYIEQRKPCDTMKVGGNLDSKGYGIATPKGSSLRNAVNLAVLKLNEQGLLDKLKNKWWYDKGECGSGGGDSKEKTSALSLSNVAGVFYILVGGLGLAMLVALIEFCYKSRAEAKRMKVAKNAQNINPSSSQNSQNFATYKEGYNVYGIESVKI
UniProt P47898, whole entry: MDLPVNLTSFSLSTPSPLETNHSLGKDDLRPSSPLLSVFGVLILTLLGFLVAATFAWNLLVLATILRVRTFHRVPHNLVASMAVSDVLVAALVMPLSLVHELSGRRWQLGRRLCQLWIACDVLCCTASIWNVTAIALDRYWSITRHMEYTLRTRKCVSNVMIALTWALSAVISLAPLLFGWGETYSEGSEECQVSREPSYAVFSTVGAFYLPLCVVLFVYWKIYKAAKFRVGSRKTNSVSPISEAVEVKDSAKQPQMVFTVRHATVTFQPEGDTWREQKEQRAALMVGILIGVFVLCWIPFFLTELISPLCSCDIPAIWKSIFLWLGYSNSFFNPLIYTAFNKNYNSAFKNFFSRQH
UniProt Q12908, whole entry: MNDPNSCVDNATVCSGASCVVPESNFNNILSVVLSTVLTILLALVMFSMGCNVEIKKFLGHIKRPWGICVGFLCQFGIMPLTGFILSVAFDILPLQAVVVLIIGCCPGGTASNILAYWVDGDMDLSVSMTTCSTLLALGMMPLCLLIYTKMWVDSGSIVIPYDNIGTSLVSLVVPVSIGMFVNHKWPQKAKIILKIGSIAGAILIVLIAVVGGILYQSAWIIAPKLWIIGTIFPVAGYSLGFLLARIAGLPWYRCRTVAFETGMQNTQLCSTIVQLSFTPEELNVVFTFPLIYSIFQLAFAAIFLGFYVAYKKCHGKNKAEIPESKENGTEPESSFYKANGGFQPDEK
UniProt Q00960, whole entry, looked up: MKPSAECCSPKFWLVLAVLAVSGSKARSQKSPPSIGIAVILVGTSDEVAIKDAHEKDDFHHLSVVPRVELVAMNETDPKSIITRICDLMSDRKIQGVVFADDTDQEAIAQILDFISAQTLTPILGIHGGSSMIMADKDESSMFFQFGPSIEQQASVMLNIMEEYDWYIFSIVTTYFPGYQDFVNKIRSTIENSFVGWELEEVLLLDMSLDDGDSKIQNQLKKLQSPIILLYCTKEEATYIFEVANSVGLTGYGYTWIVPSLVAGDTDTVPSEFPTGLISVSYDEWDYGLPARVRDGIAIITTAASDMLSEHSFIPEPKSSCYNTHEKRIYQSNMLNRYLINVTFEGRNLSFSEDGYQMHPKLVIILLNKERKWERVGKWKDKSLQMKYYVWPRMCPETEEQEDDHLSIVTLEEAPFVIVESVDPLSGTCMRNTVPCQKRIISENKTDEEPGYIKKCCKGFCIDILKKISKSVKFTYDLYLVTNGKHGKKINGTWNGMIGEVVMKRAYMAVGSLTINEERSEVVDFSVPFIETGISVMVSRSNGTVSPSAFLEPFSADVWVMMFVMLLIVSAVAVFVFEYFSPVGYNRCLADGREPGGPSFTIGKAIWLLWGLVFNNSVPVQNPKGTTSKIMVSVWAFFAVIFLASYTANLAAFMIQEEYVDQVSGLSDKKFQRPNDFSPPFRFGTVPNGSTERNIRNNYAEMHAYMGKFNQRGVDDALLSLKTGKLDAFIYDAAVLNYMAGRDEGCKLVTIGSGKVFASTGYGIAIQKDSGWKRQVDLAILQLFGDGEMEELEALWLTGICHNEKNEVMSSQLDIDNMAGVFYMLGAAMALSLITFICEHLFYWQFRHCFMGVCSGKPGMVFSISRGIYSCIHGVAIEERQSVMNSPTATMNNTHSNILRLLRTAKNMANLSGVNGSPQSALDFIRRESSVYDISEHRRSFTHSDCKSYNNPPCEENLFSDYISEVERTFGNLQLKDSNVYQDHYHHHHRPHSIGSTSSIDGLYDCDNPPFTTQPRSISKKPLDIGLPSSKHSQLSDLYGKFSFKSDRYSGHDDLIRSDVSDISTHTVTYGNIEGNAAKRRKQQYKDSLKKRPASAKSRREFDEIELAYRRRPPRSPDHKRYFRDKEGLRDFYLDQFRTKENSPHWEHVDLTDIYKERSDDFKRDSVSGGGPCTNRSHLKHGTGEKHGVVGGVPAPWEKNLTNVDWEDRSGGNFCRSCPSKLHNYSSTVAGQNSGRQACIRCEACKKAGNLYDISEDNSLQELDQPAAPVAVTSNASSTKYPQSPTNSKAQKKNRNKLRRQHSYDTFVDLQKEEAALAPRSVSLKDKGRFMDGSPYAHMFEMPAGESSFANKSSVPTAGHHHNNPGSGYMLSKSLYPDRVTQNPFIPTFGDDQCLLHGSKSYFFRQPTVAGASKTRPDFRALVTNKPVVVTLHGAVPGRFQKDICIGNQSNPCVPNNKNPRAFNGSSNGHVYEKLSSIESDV
UniProt P28072, whole entry, looked up: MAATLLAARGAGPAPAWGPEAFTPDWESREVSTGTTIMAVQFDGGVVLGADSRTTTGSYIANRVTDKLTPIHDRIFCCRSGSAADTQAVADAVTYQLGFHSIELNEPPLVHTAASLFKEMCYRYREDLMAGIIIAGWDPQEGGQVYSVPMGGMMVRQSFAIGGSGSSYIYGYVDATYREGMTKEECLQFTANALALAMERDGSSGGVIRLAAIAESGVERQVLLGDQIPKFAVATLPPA
UniProt P21447, whole entry: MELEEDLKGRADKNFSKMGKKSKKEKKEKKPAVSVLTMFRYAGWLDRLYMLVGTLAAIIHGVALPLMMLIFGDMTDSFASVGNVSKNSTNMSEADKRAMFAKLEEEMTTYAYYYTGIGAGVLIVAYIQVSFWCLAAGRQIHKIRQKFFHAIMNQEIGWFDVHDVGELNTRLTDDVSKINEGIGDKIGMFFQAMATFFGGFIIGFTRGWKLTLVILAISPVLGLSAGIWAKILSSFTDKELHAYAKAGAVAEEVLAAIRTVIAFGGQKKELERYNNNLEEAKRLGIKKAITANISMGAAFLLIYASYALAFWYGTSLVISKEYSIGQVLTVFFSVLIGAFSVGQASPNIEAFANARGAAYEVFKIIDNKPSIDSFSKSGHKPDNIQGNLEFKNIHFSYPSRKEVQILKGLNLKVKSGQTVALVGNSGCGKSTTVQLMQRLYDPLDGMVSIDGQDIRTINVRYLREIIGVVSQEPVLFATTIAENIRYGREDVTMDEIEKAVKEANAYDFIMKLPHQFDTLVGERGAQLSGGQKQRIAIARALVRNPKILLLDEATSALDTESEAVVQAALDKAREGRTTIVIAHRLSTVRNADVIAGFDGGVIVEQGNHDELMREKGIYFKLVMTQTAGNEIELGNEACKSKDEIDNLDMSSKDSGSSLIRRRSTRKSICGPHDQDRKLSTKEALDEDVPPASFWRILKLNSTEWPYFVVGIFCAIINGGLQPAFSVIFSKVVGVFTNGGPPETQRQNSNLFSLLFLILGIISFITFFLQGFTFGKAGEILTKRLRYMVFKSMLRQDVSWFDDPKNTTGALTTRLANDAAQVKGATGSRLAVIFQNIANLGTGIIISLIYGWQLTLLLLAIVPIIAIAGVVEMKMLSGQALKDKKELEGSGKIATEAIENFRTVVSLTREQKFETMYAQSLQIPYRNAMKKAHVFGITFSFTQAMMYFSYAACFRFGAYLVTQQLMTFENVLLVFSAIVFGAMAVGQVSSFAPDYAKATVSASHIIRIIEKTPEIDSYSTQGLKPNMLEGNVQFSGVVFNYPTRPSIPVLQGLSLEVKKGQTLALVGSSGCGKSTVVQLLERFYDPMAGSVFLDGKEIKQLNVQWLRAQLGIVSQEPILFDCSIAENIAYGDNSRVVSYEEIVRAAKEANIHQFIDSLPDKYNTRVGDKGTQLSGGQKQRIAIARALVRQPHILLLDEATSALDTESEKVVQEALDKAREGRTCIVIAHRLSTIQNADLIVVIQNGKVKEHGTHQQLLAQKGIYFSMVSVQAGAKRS
UniProt P51813, whole entry: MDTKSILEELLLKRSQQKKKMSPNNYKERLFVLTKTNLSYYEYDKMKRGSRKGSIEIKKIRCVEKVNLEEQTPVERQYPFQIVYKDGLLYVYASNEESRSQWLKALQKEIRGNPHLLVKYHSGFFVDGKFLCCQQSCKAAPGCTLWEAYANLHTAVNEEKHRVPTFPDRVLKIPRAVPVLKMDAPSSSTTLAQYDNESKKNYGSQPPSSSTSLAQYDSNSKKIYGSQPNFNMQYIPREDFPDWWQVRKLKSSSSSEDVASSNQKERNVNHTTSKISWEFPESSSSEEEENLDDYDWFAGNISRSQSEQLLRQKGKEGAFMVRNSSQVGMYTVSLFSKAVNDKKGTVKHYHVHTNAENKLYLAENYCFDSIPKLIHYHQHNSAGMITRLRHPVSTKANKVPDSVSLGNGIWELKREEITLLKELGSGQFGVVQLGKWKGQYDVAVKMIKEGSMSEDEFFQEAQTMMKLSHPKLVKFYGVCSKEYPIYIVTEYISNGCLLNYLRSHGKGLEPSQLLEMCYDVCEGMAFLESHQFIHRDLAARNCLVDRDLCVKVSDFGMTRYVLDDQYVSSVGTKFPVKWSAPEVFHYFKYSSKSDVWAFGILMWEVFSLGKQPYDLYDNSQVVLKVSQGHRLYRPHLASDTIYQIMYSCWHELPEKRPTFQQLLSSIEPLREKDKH
UniProt P22303, whole entry, looked up: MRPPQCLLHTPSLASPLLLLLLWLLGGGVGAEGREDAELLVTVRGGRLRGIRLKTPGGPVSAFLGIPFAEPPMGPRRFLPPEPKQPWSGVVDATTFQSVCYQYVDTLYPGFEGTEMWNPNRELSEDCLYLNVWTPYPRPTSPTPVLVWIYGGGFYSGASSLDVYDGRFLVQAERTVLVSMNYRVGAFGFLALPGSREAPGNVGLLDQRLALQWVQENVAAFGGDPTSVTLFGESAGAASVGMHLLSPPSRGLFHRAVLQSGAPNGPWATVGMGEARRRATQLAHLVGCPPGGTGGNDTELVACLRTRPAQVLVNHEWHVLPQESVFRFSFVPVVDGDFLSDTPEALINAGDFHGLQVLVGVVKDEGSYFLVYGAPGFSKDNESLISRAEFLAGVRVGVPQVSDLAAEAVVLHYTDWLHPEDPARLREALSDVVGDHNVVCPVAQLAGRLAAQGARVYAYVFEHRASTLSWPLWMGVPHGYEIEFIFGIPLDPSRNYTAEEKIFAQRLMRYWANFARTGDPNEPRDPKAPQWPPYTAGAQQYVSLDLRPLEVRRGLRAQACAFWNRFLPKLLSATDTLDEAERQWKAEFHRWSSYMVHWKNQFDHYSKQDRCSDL

SMILES | target or system | test | test system | setting | scale | quantity | value
CCN(CC)C(=O)Oc1ccc(C(=O)Nc2cccc3cc[nH]c23)cc1 | Glutamate receptor 2 (Homo sapiens, UniProt P42262) | modulator, two-electrode voltage clamp | Xenopus oocytes | 20 µM, with: 100 µM glutamate | baseline: agonist alone | current response | 101 ± 1.9%
CC1(C)S[C@@H]2CS[C@@H](CS)N2[C@H]1C(=O)O | Metallo-beta-lactamase VIM-2 (VIM-2, Escherichia coli, UniProt Q5U7L7) | slow-binding inhibitor | Pseudomonas aeruginosa | with: nitrocefin | – | k-2 (E*I breakdown) | 6e-08 ± 0.0004 s⁻¹
CCCN1CCN(c2ccc3c(c2)C2CC3CCN2C(=O)OCc2ccccc2)CC1 (stereo not shown) | 5-hydroxytryptamine receptor 5A (HTR5A, Homo sapiens, UniProt P47898) | binding, radioligand binding | – | – | – | Ki | 3.24 µM
CC(CCC(=O)N(CCNC(=O)C(F)(F)F)CC(=O)O)[C@H]1CC[C@H]2[C@@H]3[C@H](O)C[C@@H]4C[C@H](O)CC[C@]4(C)[C@H]3C[C@H](O)[C@]12C (stereo partly shown) | Ileal sodium/bile acid cotransporter (SLC10A2, Homo sapiens, UniProt Q12908) | substrate | – | – | – | Km | 73.2 ± 7 µM
CCCCCCC1c2ccc(O)cc2Oc2cc(O)ccc21 | Salmonella Typhimurium | – | SL1344 | – | – | MIC | > 373 µg/mL
COc1ccc(OC[C@H]2c3cccn3CC(=O)N2Cc2cccc(F)c2)cc1 | Glutamate receptor ionotropic, NMDA 2B, with GluN1 (Grin2b, Rattus norvegicus, UniProt Q00960) | ion current, whole-cell patch clamp | HEK293T cells, transfected | 10 µM, with: 1 mM glutamate for 10 ms plus 100 µM glycine | – | charge transfer | -12 ± 11 nA·ms
COc1cc(OC)cc(-c2nsc(=O)o2)c1 | Proteasome subunit beta type-6 (PSMB6, Homo sapiens, UniProt P28072) | inactivation | human PA28-activated proteasome | – | – | kobs/[I] | 0.91 M⁻¹ s⁻¹
CC(=O)O[C@H]1C(=O)[C@]2(C)[C@@H](OC(=O)[C@H](C)NC(=O)c3ccc4c(c3)C(=O)OC43c4cc(F)c(O)cc4Oc4cc(O)c(F)cc43)C[C@H]3OC[C@@]3(OC(C)=O)[C@H]2[C@H](OC(=O)c2ccccc2)[C@]2(O)C[C@H](OC(=O)[C@H](O)[C@@H](NC(=O)c3ccccc3)c3ccccc3)C(C)=C1C2(C)C | ATP-dependent translocase ABCB1 (Abcb1a, Mus musculus, UniProt P21447) | – | – | concentration not given, nucleotide-bound or vanadate-trapped | baseline: nucleotide-free state | change in Kd | no effect
CC#C/C(=N\OC[C@H]1COCCN1)c1ccc2ncnc(Nc3ccc(OCc4cccc(F)c4)c(Cl)c3)c2c1 | Cytoplasmic tyrosine-protein kinase BMX (BMX, Homo sapiens, UniProt P51813) | kinase activity | – | 10 µM | – | inhibition | 40.6%
CCN1CCN(Cc2ccc(NC(=O)c3ccc(C)c(/C=C/c4cnc5[nH]ccc5c4OC)c3)cc2C(F)(F)F)CC1 | Protein kinase C gamma type (PRKCG, Homo sapiens, UniProt P05129) | kinase activity, inhibitor, cell-based kinome screen | – | 5 µM | baseline: vehicle | log2 fold change | 0.462
C[C@H](Cc1ccc(O)c(O)c1)[C@@H](C)Cc1ccc(O)c(O)c1 | – | – | DMSO | 24 h, room temperature | – | solubility | > 100 mg/mL
CSc1nc(Cl)cc(Sc2nnc(-c3cc(C(F)(F)F)cc(C(F)(F)F)c3)[nH]2)n1 | Salmonella Typhimurium | – | SL1344 | with: polymyxin B nonapeptide 25 µg/mL | – | MIC | 10 µg/mL (≈ 21.2 µM)
CCN(CC)c1ccc2c(O)c(C=Nc3ccc(CC(=O)NNc4c5c(nc6ccccc46)CCCC5)cc3)c(=O)oc2c1 | Acetylcholinesterase (ACHE, Homo sapiens, UniProt P22303) | enzyme activity | – | – | – | efficacy | -89.6 ± 0.63%
